# Results gathered from unrelated publications.
# Each line is one published result; not all experiments were run side by side.
# Organism: Pseudomonas aeruginosa
SMILES,assay,test system,setting,MIC
CCCCCCCCCC(=O)Oc1c(C)c(OC)c2c(c1C)OC(=O)C(CCCCCCCC)C2(O)C=Cc1ccccc1 (stereo not drawn),"microbial growth, broth dilution",ATCC27853,,5000 µg/mL
O=C(O)c1cn(C2CC2)c2cc(N3CCNCC3)c(F)cc2c1=O,broth microdilution,phenazine non-producing,,0.03 µg/mL
CCCCCCn1cc[n+](CCCCCCOc2cc(OCCCCCC[n+]3ccn(CCCCCC)c3)cc(OCCCCCC[n+]3ccn(CCCCCC)c3)c2)c1.[Br-].[Br-].[Br-],,PAO1,,4 µM
O=C(O)c1ccccc(=O)c1O,broth microdilution,"ATCC 27853, CAMHB","16 to 24 h, ≥80% growth inhibition",> 71.4 µM
COc1ccc2ccc(O)c(/C=N/[C@H]3CCCC[C@H]3/N=C/c3c(C)cccc3O)c2c1,"microbial growth, broth dilution",,,> 40 µM
CC[C@H]1OC(=O)[C@H](C)[C@@H](OC(=O)Cc2ccc([N+](=O)[O-])cc2)[C@H](C)[C@@H](O[C@@H]2O[C@H](C)C[C@H](N(C)C)[C@H]2O)[C@](C)(OC)C[C@@H](C)C(=O)[C@H](C)[C@@H](O)[C@]1(C)O,microbial growth,ATCC27853,,> 32 µg/mL
CC1(C)[C@H](NC(=O)/C(=N\OCc2c(Cl)cccc2Cl)c2csc(N)n2)C(=O)N1OS(=O)(=O)O,agar dilution,ATCC 27853,,> 64 µg/mL
CC[C@H](C)[C@H](NC(=O)[C@H](CCC(N)=O)NC(=O)[C@H](Cc1ccccc1)NC(=O)[C@H](CC(N)=O)NC(=O)[C@H](CCCCN)NC(=O)[C@H](CC(C)C)NC(=O)[C@H](CCCNC(=N)N)NC(=O)[C@H](CCCCN)NC(=O)[C@H](CCCCN)NC(=O)[C@@H](NC(=O)[C@H](CO)NC(=O)[C@H](CCCCN)NC(=O)CNC(=O)[C@H](CC(C)C)NC(=O)[C@H](CCCCN)NC(=O)[C@H](CCCCN)NC(=O)[C@H](CC(C)C)NC(=O)[C@H](CCCCN)NC(=O)[C@H](CCCCN)NC(=O)[C@H](CCCNC(=N)N)NC(=O)[C@H](CC(C)C)NC(=O)CNC(=O)[C@@H](N)CCCNC(=N)N)[C@@H](C)CC)C(=O)NCC(=O)N[C@@H](Cc1ccccc1)C(=O)N[C@@H](CO)C(=O)N[C@H](C(=O)N1CCC[C@H]1C(=O)N[C@@H](Cc1ccccc1)C(=O)N[C@@H](C)C(=O)NCC(=O)O)C(C)C,broth microdilution,"PA14, cation-adjusted Mueller-Hinton broth","16 h, 37 °C",32 µg/mL
CC(C)(O/N=C(\C(=O)N[C@@H]1C(=O)N(OS(=O)(=O)O)C1(C)C)c1nsc(N)n1)C(=O)O,agar dilution,ATCC 27853,,> 64 µg/mL
CC[C@H]1OC(=O)[C@H](C)[C@@H](O[C@H]2C[C@@](C)(OC)[C@@H](O)[C@H](C)O2)[C@H](C)[C@@H](O[C@@H]2O[C@H](C)C[C@H](N(C)C)[C@H]2O)[C@](C)(OC)C[C@@H](C)C(=O)[C@H](C)[C@@H](O)[C@]1(C)O,microbial growth,ATCC27853,,> 32 µg/mL
N=C(N)NCCC[C@@H]1NC(=O)[C@@H](CCCNC(=N)N)NC(=O)[C@H](CCCNC(=N)N)NC(=O)[C@@H](C(c2ccccc2)c2ccccc2)NC(=O)[C@@H](C(c2ccccc2)c2ccccc2)NC(=O)[C@@H](C(c2ccccc2)c2ccccc2)NC(=O)[C@@H](CCCNC(=N)N)NC1=O,,ATCC 27853,,16 µg/mL
CCCCCCn1cc[n+](CCCCOc2cc(OCCCC[n+]3ccn(CCCCCC)c3)cc(OCCCC[n+]3ccn(CCCCCC)c3)c2)c1.[Br-].[Br-].[Br-],,PAO1,,125 µM
C=CCO/N=C(\C(=O)N[C@@H]1C(=O)N(OS(=O)(=O)O)C1(C)C)c1csc(N)n1,agar dilution,ATCC 27853,,64 µg/mL
CN[C@H](CC(C)C)C(=O)N[C@H]1C(=O)N[C@@H](CC(N)=O)C(=O)N[C@H]2C(=O)N[C@H]3C(=O)N[C@H](C(=O)N[C@H](C(=O)NCc4cn(CCCCC(=O)N[C@H](C(=O)N[C@@H](CCN)C(=O)N[C@H]5CCNC(=O)[C@H]([C@@H](C)O)NC(=O)[C@H](CCN)NC(=O)[C@H](CCN)NC(=O)[C@H](CC(C)C)NC(=O)[C@@H](CC(C)C)NC(=O)[C@H](CCN)NC5=O)[C@@H](C)O)nn4)c4cc(O)cc(O)c4-c4cc3ccc4O)[C@H](O)c3ccc(c(Cl)c3)Oc3cc2cc(c3O[C@@H]2O[C@H](CO)[C@@H](O)[C@H](O)[C@H]2O[C@H]2C[C@](C)(N)[C@H](O)[C@H](C)O2)Oc2ccc(cc2Cl)[C@H]1O,broth microdilution,"ATCC 10145, cation-adjusted Mueller-Hinton broth","18 to 20 h, 37 °C, 0.002% polysorbate 80",> 128 µg/mL
COc1cc(C(=O)Nc2ccc(C(=O)O)c(O)c2)ccc1NC(=O)c1ccc(NC(=O)[C@H](Cc2c[nH]nn2)NC(=O)c2ccc(NC(=O)/C(C)=C/c3ccc(O)cc3)cc2)cc1,broth microdilution,ciprofloxacin-sensitive,,32 µg/mL
COc1ccc2ccc(O)c(/C=N/[C@H]3CCCC[C@H]3/N=C/c3cc(C(C)(C)C)cc(C(C)(C)C)c3O)c2c1,"microbial growth, broth dilution",,,> 40 µM
C=CCO/N=C(\C(=O)N[C@@H]1C(=O)N(OS(=O)(=O)O)C1(C)C)c1nsc(N)n1,agar dilution,ATCC 27853,,16 µg/mL
CO[C@@H]1[C@@H](OC(N)=O)[C@@H](O)[C@H](Oc2ccc3c(O)c(NC(=O)c4ccc(O)c(CC=C(C)C)c4)c(=O)oc3c2C)OC1(C)C,"microbial growth, broth dilution",PAO1,,1020 µg/mL
CN[C@H](CC(C)C)C(=O)N[C@H]1C(=O)N[C@@H](CC(N)=O)C(=O)N[C@H]2C(=O)N[C@H]3C(=O)N[C@H](C(=O)N[C@H](C(=O)NCc4cn(CC(=O)N[C@H](C(=O)N[C@@H](CCN)C(=O)N[C@H]5CCNC(=O)[C@H]([C@@H](C)O)NC(=O)[C@H](CCN)NC(=O)[C@H](CCN)NC(=O)[C@H](CC(C)C)NC(=O)[C@@H](CC(C)C)NC(=O)[C@H](CCN)NC5=O)[C@@H](C)O)nn4)c4cc(O)cc(O)c4-c4cc3ccc4O)[C@H](O)c3ccc(c(Cl)c3)Oc3cc2cc(c3O[C@@H]2O[C@H](CO)[C@@H](O)[C@H](O)[C@H]2O[C@H]2C[C@](C)(N)[C@H](O)[C@H](C)O2)Oc2ccc(cc2Cl)[C@H]1O,broth microdilution,"ATCC 10145, cation-adjusted Mueller-Hinton broth","18 to 20 h, 37 °C, 0.002% polysorbate 80",> 128 µg/mL
CCCCCCCC[C@@H]1NC(=O)[C@@H](Cc2ccccc2)NC(=O)[C@H](CCN)NC(=O)[C@@H](NC(=O)[C@H](CCN)NC(=O)[C@@H](NC(=O)[C@H](CCN)NC(=O)CCCCCCC)[C@@H](C)O)CCNC(=O)[C@H]([C@@H](C)O)NC(=O)[C@H](CCN)NC(=O)[C@H](CCN)NC1=O,,ATCC 27853,,0.25 to 0.5 µg/mL
C/C(=C\c1ccc(O)cc1)C(=O)Nc1ccc(C(=O)N[C@@H](Cc2c[nH]nn2)C(=O)Nc2ccc(C(=O)Nc3ccc(C(=O)Nc4ccc(C(=O)O)cc4)cc3)cc2)cc1,broth microdilution,ciprofloxacin-resistant,,32 µg/mL
CCCCCCCCCCCCCCCCCCn1cc(CN(CCC(=O)NCCN(CCC(=O)NCCN(CCC(=O)NCCN(C)C)CCC(=O)NCCN(C)C)CCC(=O)NCCN(CCC(=O)NCCN(C)C)CCC(=O)NCCN(C)C)CCC(=O)NCCN(CCC(=O)NCCN(CCC(=O)NCCN(C)C)CCC(=O)NCCN(C)C)CCC(=O)NCCN(CCC(=O)NCCN(C)C)CCC(=O)NCCN(C)C)nn1,"microbial growth, broth dilution",PAO1,18 h,> 96 µg/mL
CC[C@H]1OC(=O)[C@H](C)[C@@H](OC(=O)Cc2cccc(Cl)c2)[C@H](C)[C@@H](O[C@@H]2O[C@H](C)C[C@H](N(C)C)[C@H]2O)[C@](C)(OC)C[C@@H](C)C(=O)[C@H](C)[C@@H](O)[C@]1(C)O,microbial growth,ATCC27853,,> 32 µg/mL
COc1c(NC(=O)c2ccc(NC(=O)[C@H](Cc3c[nH]nn3)NC(=O)c3ccc(NC(=O)/C(C)=C/c4ccc(O)cc4)cc3)cc2)ccc(C(=O)Nc2ccc(C(=O)O)c(O)c2)c1O,broth microdilution,ciprofloxacin-sensitive,,4 µg/mL

# Excerpt of the above:
SMILES,assay,test system,setting,MIC
COc1c(NC(=O)c2ccc(NC(=O)[C@H](Cc3c[nH]nn3)NC(=O)c3ccc(NC(=O)/C(C)=C/c4ccc(O)cc4)cc3)cc2)ccc(C(=O)Nc2ccc(C(=O)O)c(O)c2)c1O,broth microdilution,ciprofloxacin-sensitive,,4 µg/mL
COc1ccc2ccc(O)c(/C=N/[C@H]3CCCC[C@H]3/N=C/c3cc(C(C)(C)C)cc(C(C)(C)C)c3O)c2c1,"microbial growth, broth dilution",,,> 40 µM
CCCCCCn1cc[n+](CCCCCCOc2cc(OCCCCCC[n+]3ccn(CCCCCC)c3)cc(OCCCCCC[n+]3ccn(CCCCCC)c3)c2)c1.[Br-].[Br-].[Br-],,PAO1,,4 µM
